Measured values collected from several papers.
Each line is one published result; not all experiments were run side by side.
Cell line: UO-31

CCN(CC)c1ccc(C=NNC(=O)CSc2nc3ccccc3c(=O)n2Cc2ccc(S(N)(=O)=O)cc2)c(O)c1
TGI (NCI five-dose screen): > 100 µM

CCCC(CCC)C(=O)OCc1cn(-c2c3ccccc3nc3ccccc23)nn1
growth percentage (NCI60 single-dose screen; 10 µM): 85.4%

COc1ccc(OC)c(-c2nc3ccc(-c4nc5ccc(N6CCN(C)CC6)cc5[nH]4)cc3[nH]2)c1
growth percent (SRB; 10 µM, 48 h): 75%

Cc1cc(=O)[nH]n1-c1nc(-c2ccc(Cl)cc2)c2c(NC(=O)c3ccccc3)nnc-2[nH]1
cell growth (SRB; 10 µM, NCI60 single-dose screen; reference: untreated): 87.6%

CCCCN1CCN(c2ccc3[nH]c(-c4ccc5[nH]c(-c6ccc(C(F)(F)F)cc6)nc5c4)nc3c2)CC1
growth percent (SRB; 10 µM, 48 h): -82.8%

Cc1n[nH]c2nc(-c3ccc(Cl)cc3)c3c(NC(=O)c4ccccc4)nnc-3n12
cell growth (SRB; 10 µM, NCI60 single-dose screen; reference: untreated): 82.2%

CCCCN1CCN(c2ccc3nc(-c4ccc5nc(-c6cc(OC)ccc6OC)[nH]c5c4)[nH]c3c2)CC1
growth percent (SRB; 10 µM, 48 h): 78.5%

Cc1cc(C)n(-c2nc(-c3ccc(Cl)cc3)c3c(NC(=O)c4ccccc4)nnc-3[nH]2)n1
cell growth (SRB; 10 µM, NCI60 single-dose screen; reference: untreated): 75.5%

Cn1cncc1C1=CN(c2ncnc3[nH]cnc23)CCS1
TGI (renal cancer): 129 µM

O=C(Nc1nnc2n3c(nc(-c4ccc(Cl)cc4)c1-2)SCC3=O)c1ccccc1
cell growth (SRB; 10 µM, NCI60 single-dose screen; reference: untreated): 89.9%

O=C1NC(=NCc2cccs2)S/C1=C\c1ccc2ncccc2c1
IC50 (MTS; NCI60 panel): > 10 µM

C#C[C@@]1(O)[C@@H](CO)O[C@@H](n2cc(F)c3c(N)ncnc32)[C@@H]1O
TGI (SRB; NCI-60 screen): 2.48 µM

CCCN1CCN(c2ccc3[nH]c(-c4ccc5[nH]c(-c6ccc(C(F)(F)F)cc6)nc5c4)nc3c2)CC1
growth percent (SRB; 10 µM, 48 h): 79.7%

O=C(Nc1nnc2n3c(Cc4ccccc4)n[nH]c3nc(-c3ccc(Cl)cc3)c1-2)c1ccccc1
cell growth (SRB; 10 µM, NCI60 single-dose screen; reference: untreated): 88.3%

O=C1NC(c2ccccc2)(c2ccccc2)C(=O)N1Cc1cn(-c2c3ccccc3nc3ccccc23)nn1
growth percentage (NCI60 single-dose screen; 10 µM): 62.4%

CCCCN1CCN(c2ccc3[nH]c(-c4ccc5[nH]c(-c6ccc(OCC)c(OCC)c6)nc5c4)nc3c2)CC1
growth percent (SRB; 10 µM, 48 h): 74.4%

O=C1NC(c2ccccc2)(c2ccccc2)C(=O)N1Cc1cn(-c2cc3ccccc3oc2=O)nn1
growth percentage (NCI60 single-dose screen; 10 µM): 70.2%

S=C([S][Au-][P+](CCCCCC[P+]([Au-][S]C(=S)n1cccn1)(c1ccccc1)c1ccccc1)(c1ccccc1)c1ccccc1)n1cccn1
log10 TGI (cell growth, NCI-60 screen; renal cancer): > -4

CSc1nc(-c2ccc(Cl)cc2)c2c(NC(=O)c3ccccc3)nnc-2[nH]1
cell growth (SRB; 10 µM, NCI60 single-dose screen; reference: untreated): 64.7%

CCCCN1CCN(c2ccc3[nH]c(-c4ccc5[nH]c(-c6cc(OC)c(OC)c(OC)c6)nc5c4)nc3c2)CC1
growth percent (SRB; 10 µM, 48 h): 79.8%

For quick reference, copied from above:
COc1ccc(OC)c(-c2nc3ccc(-c4nc5ccc(N6CCN(C)CC6)cc5[nH]4)cc3[nH]2)c1
growth percent (SRB; 10 µM, 48 h): 75%

Cc1cc(=O)[nH]n1-c1nc(-c2ccc(Cl)cc2)c2c(NC(=O)c3ccccc3)nnc-2[nH]1
cell growth (SRB; 10 µM, NCI60 single-dose screen; reference: untreated): 87.6%
